{"data": "Published values gathered from unrelated publications", "note": "± gives the spread as reported. Ends that are not written are not given here."}
{"Substance": "CC1=C(I)C(C)=[N+]2C1=C(c1ccc(OCCn3cc(CNC(=O)CSC[C@H](NC(=O)c4ccc(-c5nnc(C)c6c5CCC(O)CCC6)cc4)C(=O)N[C@@H](CCCNC(=N)N)C(=O)N[C@@H](CCCNC(=N)N)C(=O)N[C@@H](CCCNC(=N)N)C(=O)N[C@@H](CCCNC(=N)N)C(=O)N[C@@H](CCCNC(=N)N)C(N)=O)nn3)cc1)c1c(C)c(I)c(C)n1[B-]2(F)F (stereo partly drawn)", "setting": "1 µM, added: DPBF, 525 nm light", "scale": "reference: rose bengal, erythrosine B", "quantity": "singlet oxygen quantum yield", "result": 0.59}
{"Substance": "COc1cccc2c1C(=O)c1c(O)c3c(c(O)c1C2=O)C[C@@](O)(C(=O)CO)C[C@@H]3O[C@H]1C[C@H](NC(=O)[C@@H]2CCCN2C(=O)CNC(=O)[C@@H](N)CC(C)C)[C@H](O)[C@H](C)O1", "test system": "mouse, E0771 tumour-bearing, kidney", "setting": "intravenous, 92 µmol/kg PhAc-ALGP-Dox", "quantity": "Cmax", "result": "5.6 µM"}
{"Substance": "glial fibrillary acidic protein", "test system": "human EDTA whole blood", "setting": "24 h, room temperature, delayed centrifugation", "quantity": "stability", "result": "stable"}
{"Substance": "KCNTATCATQRLANFLVHSSNNFGPILPPTNVGSNTY (Pramlintide; not fully specified (C-terminus, bridges); cysteine pairing not given here; sequence looked up)", "test system": "peptide, obese or overweight humans", "setting": "dose not given", "quantity": "back pain incidence", "result": "5.4%"}
{"Substance": "insulin aspart", "test system": "healthy subjects, plasma", "setting": "subcutaneous, 0.2 U/kg", "quantity": "Cmax", "result": "2.98 ng/mL"}
{"Substance": "insulin degludec", "assay": "ELISA", "test system": "human moderate renal impairment, serum", "setting": "dose not given, single dose", "scale": "reference: impaired over normal renal function", "quantity": "Cmax ratio", "result": 1.06}
{"Substance": "insulin degludec", "test system": "healthy Chinese participants", "setting": "subcutaneous, 17 U", "quantity": "median Tmax", "result": "11 h"}
{"Substance": "CSCC[C@H](NC(=O)[C@H](CC(C)C)NC(=O)[C@H](Cc1c[nH]cn1)NC(=O)CNC(=O)[C@@H](NC(=O)[C@H](C)NC(=O)[C@H](Cc1c[nH]c2ccccc12)NC(=O)[C@H](CCC(N)=O)NC(=O)CCCCCNC(=O)[C@H](CCC(=O)NCCCC[C@@H]1NC(=O)[C@@H](Cc2ccc(O)cc2)NC(=O)[C@H](CC(=O)O)NC(=O)CNC(=O)[C@H](CCCNC(=N)N)NC1=O)NC(=O)CN1CCN(CC(=O)O)CCN(CC(=O)O)CC1)C(C)C)C(N)=O [copper-64 labelled]", "test system": "ICR SCID mouse, female, lung", "setting": "intravenous, 750 kBq, 4 h", "quantity": "tissue uptake", "result": "0.51 ± 0.08 %ID/g"}
{"Substance": "CC(C)[C@H](NC(=O)[C@@H]1CCCN1C(=O)[C@H](CCCNC(=N)N)NC(=O)[C@H](CS)NC(=O)[C@H](Cc1c[nH]c2ccccc12)NC(=O)[C@H](CCCNC(=N)N)NC(=O)[C@@H](Cc1ccccc1)NC(=O)[C@H](Cc1c[nH]cn1)NC(=O)[C@H](CCC(=O)O)NC(=O)[C@H](CS)NC(=O)[C@H](CS)NC(=O)[C@H](CCCCN)NC(=O)[C@@H]1CC(=O)N[C@@H](CCCNC(=N)N)C(=O)N[C@@H](C)C(=O)N[C@@H](CC(=O)O)C(=O)N[C@H](Cc2ccc(O)cc2)C(=O)N1)C(N)=O [technetium-99m labelled]", "test system": "C57 mice, lung", "setting": "intravenous, 0.037 MBq, 24 h", "quantity": "tissue uptake", "result": "0.29 ± 0.07 %ID/g"}
{"note": "A few entries again:"}
{"Substance": "CC1=C(I)C(C)=[N+]2C1=C(c1ccc(OCCn3cc(CNC(=O)CSC[C@H](NC(=O)c4ccc(-c5nnc(C)c6c5CCC(O)CCC6)cc4)C(=O)N[C@@H](CCCNC(=N)N)C(=O)N[C@@H](CCCNC(=N)N)C(=O)N[C@@H](CCCNC(=N)N)C(=O)N[C@@H](CCCNC(=N)N)C(=O)N[C@@H](CCCNC(=N)N)C(N)=O)nn3)cc1)c1c(C)c(I)c(C)n1[B-]2(F)F (stereo partly drawn)", "setting": "1 µM, added: DPBF, 525 nm light", "scale": "reference: rose bengal, erythrosine B", "quantity": "singlet oxygen quantum yield", "result": 0.59}
